Experimental data from different studies.
Each line is one published result; not all experiments were run side by side. ± gives the spread as reported.

For `C=CC(=O)Nc1cccc(Cn2ncc3cnc(Nc4cnn(CCOC)c4)nc32)c1`, “percent of control” read 90% (WNK2 human; binding, KINOMEscan; 100 nM; lower = stronger binding).
`CNS(=O)(=O)Nc1nccc(Cc2c(C)c3ccc(Oc4ncccc4F)cc3oc2=O)c1F` has an IC50 of 713 nM (SNU-387; cell viability; 7 days).
With `Nc1ncc(-c2cc(-c3cnn(CC(F)(F)F)c3)ncc2F)nc1C(=O)NC1CNCC(F)C1` (stereo not shown) the remaining binding was 37% (STK35; KINOMEscan; 1 µM; relative to: DMSO control).
`COCC/N=C(\S)N/N=C(\C)c1ccccc1O` gave an EC50 of 7.08 µM (Mus musculus; gene silencing, high-content imaging; LDR reporter GFP cells; confirmation, mean of two runs).
With `O=C(N/N=C/c1ccc2c(ccc[n+]2Cc2ccccc2)c1)C(=O)N/N=C/c1ccc2c(ccc[n+]2Cc2ccccc2)c1` the ΔTm was 1.8 ± 0.3 °C (hp2 hairpin duplex DNA; FRET melting; 1 µM).
`COC1CN([C@H]2CC[C@H]([C@@]3(C)Oc4c(Cl)cc(C(=O)NCc5c(SC)cc(C)[nH]c5=O)c(C)c4O3)CC2)C1`: “log2 fold change” 1.88 (RNA-seq, refers to: MTSS2; human, whole blood; dose not given, 24 h; relative to: pretreatment baseline).
`C[n+]1ccc(/C=N/NC(=O)c2cc(C(=O)N/N=C/c3cc[n+](C)cc3)ncn2)cc1` has a ΔTm of 3 ± 0.2 °C (MYC parallel G4 DNA; FRET melting; 1 µM, DNA 0.2 µM, added: duplex DNA competitor 10 µM).
`Cc1ncsc1-c1ccc(C(C)NC(=O)C2CC(O)CN2C(=O)C(NC(=O)CCCCCCCCCCN2CCCC(Nc3ncc(Cl)c(Nc4ccccc4S(=O)(=O)C(C)C)n3)C2)C(C)(C)C)cc1` (stereo not shown) — result for “log2 fold change”: -3.09 (22Rv1; RNA-seq, refers to: SHOX2 mRNA; concentration not given; relative to: DMSO).
The relative co-enrichment of `C=CC(=O)N1[C@@H](c2ccc3c(c2)OCO3)c2[nH]c3ccccc3c2C[C@H]1C(=O)N1CCN(C)CC1` is reported as 70% (human cyclin E1 wild type-3xFLAG:CDK2; co-IP with TMT proteomics, refers to: TXN; concentration not given, P10599; relative to: wild type DMSO).
With `CC[n+]1cccc2cc(/C=N/NC(=O)N/N=C/c3ccc4c(ccc[n+]4CC)c3)ccc21` the ΔTm was 4.9 ± 0.1 °C (MYC parallel G4 DNA; FRET melting; 1 µM, DNA 0.2 µM, added: duplex DNA competitor 10 µM).

Some of these lines once more:
With `O=C(N/N=C/c1ccc2c(ccc[n+]2Cc2ccccc2)c1)C(=O)N/N=C/c1ccc2c(ccc[n+]2Cc2ccccc2)c1` the ΔTm was 1.8 ± 0.3 °C (hp2 hairpin duplex DNA; FRET melting; 1 µM).
